Measured values gathered from unrelated publications.
Protocols differ between the studies behind these lines.
Target: Dual specificity tyrosine-phosphorylation-regulated kinase 2 (DYRK2, Homo sapiens, UniProt Q92630)

SMILES	test	setting	scale	measurement	value
Nc1ncc(-c2cc(-c3cnn(CC(F)(F)F)c3)ncc2F)nc1C(=O)NC1CNCC(F)C1 (centres unmarked)	enzyme activity	1 µM	relative to: DMSO control	remaining activity	94.9%
CC(C)=CC1OC(C)(C)C2C=C3C(=O)C(Cl)=CC(O)C3C3C(O)C4OC4C(=O)C132 (centres unmarked)	cell-free assay, competition with immobilised ligand	10 µM		remaining binding	68%
Nc1ncc2c(n1)-c1c([nH]c3ccc(C4=CCOCC4)cc13)CCC2	binding, competition with immobilised ligand	1 µM		remaining binding	63%
COc1cc(Nc2nc(C)cc(-c3cnn4nc(OC)ccc34)n2)cc(C(F)(F)F)c1	inhibitor	1 µM	relative to: control	remaining activity	79%
COc1ccc(NC(=O)Nc2ccc3c(c2)C(=O)N(C(C)CO)CC(C)C(CN(C)Cc2ccc4c(c2)OCO4)O3)cc1 (centres unmarked)	kinase activity, KinaseProfiler	0.03 µM, species human	relative to: control	remaining activity	99%
CNC(=O)C[C@H](Cc1ccc(C#N)cc1)NC(=O)c1cc(-c2ccc(CN[C@H](C)c3ccc(C)cc3)o2)ccc1Cl	enzyme activity, inhibitor	1 µM		activity vs control	103%
Cc1cccc(-c2ccc3nc(NC(=O)C4CCCO4)nn3c2)c1 (centres unmarked)	enzyme activity, Dundee kinase panel	10 µM		remaining activity	62%
O=C=[N][Ru-4]123([n]4c5ccc(O)cc5c5c6c(c7cc(F)c[n+]1c7c54)C(=O)NC6=O)[S+]1CC[S+]2CC[S+]3CC1 (centres unmarked)	enzyme activity	100 nM, human enzyme, added: 10 µM ATP	relative to: untreated	remaining activity	114%
COc1c(Cl)cccc1Nc1c(-c2ccncc2C#C[C@@]2(C)CCCN2C(=O)/C=C/CN(C)C)[nH]c2c1C(=O)NCC2	binding, competition with immobilised ligand	3 µM		remaining binding	75%
NC(=O)[C@@H](O)C[C@H]1CCc2sc3ncnc(O[C@H]4CC[C@H](N5CCOCC5)CC4)c3c21	enzyme activity, inhibitor	10 µM		inhibition	5%
C=CC(=O)Nc1cccc(-c2cnc3[nH]cc(C(=O)NC(C)(C)C)c3n2)c1	enzyme activity, inhibitor	0.1 µM		inhibition	8%
C=CC(=O)N1CCc2ccc(-n3c(=O)ccc4cnc5ccc(-c6cnn(C)c6)cc5c43)cc21	KINOMEscan	1 µM	relative to: DMSO control	remaining binding	96%
Cc1cccc(O[C@H]2CCC[C@@H](C(C)CNCc3ccncc3)C2)c1 (relative stereo)	enzyme activity, inhibitor	1 µM		inhibition	-2%
Cc1ccc(-c2c(/C=C(\C#N)C(=O)NC(C)C)n(CCCO)c3ncnc(N)c23)cc1	cell-free assay, competition with immobilised ligand	1 µM		remaining binding	86%
C=CC(=O)N1Cc2nc(-c3cc(-c4cc(Cl)cnc4Cl)c(F)cc3F)n(-c3ccncn3)c2C1	cell-free assay, inhibitor	1 µM		inhibition	-2.7%
COc1c(OCCCN2CCOCC2)ccc2c1N=C(NC(=O)c1cnc(N)nc1)N1CCN=C21	kinase activity, inhibitor	1 µM	relative to: untreated control	remaining activity	124%
Cc1ccc(C)c(-c2ccc3nc(NC(=O)C4CCCCC4)nn3c2)c1	enzyme activity, Dundee kinase panel	10 µM		remaining activity	11%

A few entries again:
SMILES	test	setting	scale	measurement	value
O=C=[N][Ru-4]123([n]4c5ccc(O)cc5c5c6c(c7cc(F)c[n+]1c7c54)C(=O)NC6=O)[S+]1CC[S+]2CC[S+]3CC1 (centres unmarked)	enzyme activity	100 nM, human enzyme, added: 10 µM ATP	relative to: untreated	remaining activity	114%
COc1c(Cl)cccc1Nc1c(-c2ccncc2C#C[C@@]2(C)CCCN2C(=O)/C=C/CN(C)C)[nH]c2c1C(=O)NCC2	binding, competition with immobilised ligand	3 µM		remaining binding	75%
NC(=O)[C@@H](O)C[C@H]1CCc2sc3ncnc(O[C@H]4CC[C@H](N5CCOCC5)CC4)c3c21	enzyme activity, inhibitor	10 µM		inhibition	5%
